Assay results of several laboratories.
Numbered parts are unrelated; each lists some results of a single study.

Series 1
Target: Interferon regulatory factor 7, full length, phosphomimetic (IRF7, Homo sapiens, UniProt Q92985, residues 1-503, S471D/S472D/S475D/S476D/S477D/S483D/S484D/S487D)
Technique: protein-binding microarray
Form: double-stranded DNA, one strand shown
Medium: in vitro
Concentration: 2200 nM top
Notes: 60-bp whole probe
Added: salmon DNA 0.4 mg/ml
Relative to: random background probes
Reading: higher = stronger binding
All sequences stand within: GCCTAGCAC … GTCTTGATTCGCTTGACGCTGCTG
Target sequence (chain): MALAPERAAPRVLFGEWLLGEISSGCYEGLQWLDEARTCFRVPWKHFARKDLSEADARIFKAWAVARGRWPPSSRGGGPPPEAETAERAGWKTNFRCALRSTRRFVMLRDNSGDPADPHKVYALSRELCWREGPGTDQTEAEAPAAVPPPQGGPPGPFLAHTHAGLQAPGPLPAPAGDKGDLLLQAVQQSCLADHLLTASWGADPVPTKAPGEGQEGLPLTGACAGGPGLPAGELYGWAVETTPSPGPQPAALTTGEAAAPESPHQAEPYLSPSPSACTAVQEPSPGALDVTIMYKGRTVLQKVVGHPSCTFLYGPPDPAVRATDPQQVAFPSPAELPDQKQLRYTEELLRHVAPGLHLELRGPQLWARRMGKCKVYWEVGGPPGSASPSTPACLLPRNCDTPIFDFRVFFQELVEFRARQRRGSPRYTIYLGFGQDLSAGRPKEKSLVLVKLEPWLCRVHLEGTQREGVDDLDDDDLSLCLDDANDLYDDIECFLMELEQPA
Under “fitted relative affinity”, `TTAGGTATGCTTTTCCTTTAGTGCTAG` is recorded as 1.7 z-score.
Under “fitted relative affinity”, `GATGGTATCGGTATCGGGACGTGCTAG` is recorded as 0.325 z-score.
`GACGGTTTCGACCCTGGGGACGTGCTA`: “fitted relative affinity” 2.64 z-score.
`TCAGGACTGCTTTTCCTTTAGTGCTAG`: “fitted relative affinity” 1.9 z-score.
`GATGGACTGGACTATCGGGACGTGCTA` — result for “fitted relative affinity”: -0.426 z-score.
`TTAGCTATCGGTATCGGTTAGTGCTAG` — result for “fitted relative affinity”: 0.813 z-score.

Series 2
Target: Phosphate system positive regulatory protein PHO4, full length, GST-tagged (PHO4, Saccharomyces cerevisiae, UniProt P07270, residues 1-312)
Technique: competition protein-binding microarray
Form: double-stranded DNA, one strand shown
Medium: in vitro
Concentration: 2 µM
Notes: whole 60-bp probe, lowest competitor level
Added: Cbf1 competitor, 0.05 µM
Reading: higher = stronger binding
Construct (chain): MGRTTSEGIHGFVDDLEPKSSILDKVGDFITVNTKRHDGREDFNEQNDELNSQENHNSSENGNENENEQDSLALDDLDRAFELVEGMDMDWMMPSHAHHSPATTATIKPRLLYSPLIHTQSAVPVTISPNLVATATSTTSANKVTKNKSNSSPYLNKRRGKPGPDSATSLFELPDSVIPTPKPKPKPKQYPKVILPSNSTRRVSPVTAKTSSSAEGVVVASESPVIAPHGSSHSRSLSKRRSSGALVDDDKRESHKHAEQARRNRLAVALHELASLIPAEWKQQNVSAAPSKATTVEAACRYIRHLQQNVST
For `CATACCCAACCTTGTACAGTGGGTGAAGATATTTGTGTCTTGATTCGCTTGACGCTGCTG`, the fluorescence intensity was 3610 a.u.
`AGTGCAGTGGAAAAGCACGCTTACTCTACGGATGAGGTCTTGATTCGCTTGACGCTGCTG` has a fluorescence intensity of 7530 a.u.
`GCTTAACCGAATCCACACGGGTCTGCCATCTTCCATGTCTTGATTCGCTTGACGCTGCTG` has a fluorescence intensity of 7910 a.u.
For `CTAACGAAGGTTTGGGGCGTGGGTGACAAGCCAAGTGTCTTGATTCGCTTGACGCTGCTG`, the fluorescence intensity was 11000 a.u.

Series 3
Target: Histone acetyltransferase KAT6A, winged helix 1, GST fusion (KAT6A, Homo sapiens, UniProt Q92794, residues 1-85)
Technique: protein binding microarray
Form: double-stranded DNA, one strand shown
Medium: in vitro
Concentration: not given
Notes: 8-mer, flanks averaged, mean of 2 arrays, mostly near background
Relative to: not given
Reading: higher = stronger binding
Residues (chain): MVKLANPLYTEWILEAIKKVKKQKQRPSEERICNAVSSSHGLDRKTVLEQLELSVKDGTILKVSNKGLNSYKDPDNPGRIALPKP
For `GGCTCCCA`, the E-score was 0.101.
The E-score of `GTTGCCTA` is reported as -0.0846.
For `AAGACAAC`, the E-score was -0.11.
`GTCCGAGA` gave an E-score of 0.0979.
The E-score of `ATTTTATC` is reported as -0.0532.
With `GGCGGCAC` the E-score was 0.377.

Single results of other studies
For `PhoQ, residues 284 288 289 292 302 303 SLANIV`, the fold induction was 1.38 (PhoP, residues 12 14 15 18 19 HLGGL (Escherichia coli, UniProt P23836); Sort-seq, measured: YFP reporter; E. coli; PhoQ-PhoP variant library, added: 10 µM Mg2+; relative to: high Mg2+ state, higher = stronger signaling).

Excerpt of the above (series 1):
`GACGGTTTCGACCCTGGGGACGTGCTA`: “fitted relative affinity” 2.64 z-score.
`TTAGCTATCGGTATCGGTTAGTGCTAG` — result for “fitted relative affinity”: 0.813 z-score.
